Assay results of several laboratories.
Each line is one published result; not all experiments were run side by side. Values joined by “and” are separate records of one study, mostly repeats; a detail may differ. Numbers after ± are the reported error.
NR1I2: Nuclear receptor subfamily 1 group I member 2 (NR1I2, Homo sapiens, UniProt O75469)
CDK9 with cyclin T1: Cyclin-dependent kinase 9, with cyclin T1 (CDK9, Homo sapiens, UniProt P50750)

CO[C@H]1/C=C/O[C@@]2(C)Oc3c(C)c(O)c4c(c3C2=O)C(=O)C(Br)=C(NC(=O)/C(C)=C\C=C\[C@H](C)[C@H](O)[C@@H](C)[C@@H](O)[C@@H](C)[C@H](OC(C)=O)[C@@H]1C)C4=O has an EC50 of 137 ± 40 nM (NR1I2; reporter gene, agonist, CYP3A4 promoter luciferase; 293T; 24 h, 5% charcoal-stripped FBS).
The EC50 of COc1ccc(C(=O)/C=C(\O)C(F)(F)C(F)(F)F)cn1 is reported as 50 nM (Formate-nitrite transporter (Plasmodium falciparum, UniProt O77389); cell viability, resazurin; yeast expressing Formate-nitrite transporter; 72 h, L-lactate medium).
The EC50 of Nc1ncnc2c1ncn2[C@@H]1O[C@H](CO)[C@@H](O[C@H]2O[C@H](CO)[C@@H](OP(=O)(O)O)[C@H](OP(=O)(O)O)[C@H]2O)[C@H]1O is reported as 4210 nM (Inositol 1,4,5-trisphosphate-gated calcium channel ITPR1 (Itpr1, Rattus norvegicus, UniProt P29994, del318-332/R504Q); Ca2+ release, agonist; permeabilized DT40 cells).
COc1ccc(OC[C@H]2c3cccn3CC(=O)N2Cc2cccc(F)c2)cc1 gave an EC50 of 1700 nM (Ionotropic glutamate receptor NMDA 1/2D (Rattus norvegicus, UniProt P35439+Q62645); ion current, agonist, two-electrode voltage clamp; oocytes).
With Cc1[nH]c2ccccc2c(=O)c1-c1ccc(Oc2ccc(OC(F)(F)F)cc2)cc1 the EC50 was 120 ± 12 nM (cob (Babesia microti, UniProt A0A0K3AQ17); cytochrome c reductase activity, inhibitor; Babesia microti, mitochondria; together with: decylubiquinol).
O=C(NC1CCC1)[C@H](Cc1c[nH]c2ccccc12)NC(=O)[C@H](CCCCNC(=S)NCCc1noc(=O)[nH]1)NS(=O)(=O)c1cccc(F)c1 has an EC50 of greater than 10000 nM (NAD-dependent protein deacylase sirtuin-5, mitochondrial (SIRT5, Homo sapiens, UniProt Q9NXA8); thermal stabilisation, ITDRF-CETSA; HEK293T; 2 h, 52 °C).
The EC50 of O=C(C1CCCCC1)N1CC(=O)N2CCc3ccccc3[C@@H]2C1 is reported as 221 ± 85 nM (Transient receptor potential channel TRPM(PZQ) (Schistosoma haematobium, UniProt A0A922ISR7); cytoplasmic Ca2+ increase, agonist, FLIPR; HEK293 transiently expressing target).
Cc1cc[n+]2c3c1ccc1c(C)cc[n+](c13)[Ir-3]213([c]2ccccc2-c2ccc4ccc(Cl)cc4[n+]21)[c]1ccccc1-c1ccc2ccc(Cl)cc2[n+]13.F[P-](F)(F)(F)(F)F has an EC50 of greater than 1000 nM (CDK9 with cyclin T1; enzyme activity, inhibitor).
NC(N)=NCCC[C@H](NC(=O)[C@H](Cc1ccccc1)NC(=O)[C@@H]1CCCN1C(=O)[C@H](CO)NC(=O)[C@H](Cc1ccccc1)NC(=O)CNC(=O)[C@@H]1CCCN1C(=O)[C@@H]1CCCN1C(=O)[C@@H](N)CCCN=C(N)N)C(=O)O gave an EC50 of 0.5 nM (B2 bradykinin receptor (Rattus norvegicus, UniProt P25023); inositol phosphate accumulation, agonist; primary rat trigeminal ganglion cells; 15 min, 37 °C, together with: 20 mM LiCl).
For Cc1cc2c(cc1C)N[C@H](CC(=O)Nc1ccc(N3CCOCC3)cc1)C(=O)N2, the EC50 was 1090 nM (Protein kinase C zeta type (PRKCZ, Homo sapiens, UniProt Q05513); enzyme activity, activator, ADP detection).
For COc1ccc(C(=O)c2c(C(=O)NCCCN(C)C)oc3ccc(Cl)cc3c2=O)cc1OC, the EC50 was roughly 35 nM (Growth hormone secretagogue receptor type 1 (GHSR, Homo sapiens, UniProt Q92847); calcium signal, agonist).
O=C(Nc1cc(F)ccn1)C12CC1/C(=N\O)c1ccccc1O2 (single isomer, unassigned; (-)) has an EC50 of 1300 nM (Metabotropic glutamate receptor 4 (GRM4, Homo sapiens, UniProt Q14833); calcium mobilisation, positive allosteric modulator; CHO hmGluR4/Gqi5; together with: glutamate EC20).
O=C(c1cc2c(s1)CCCCC2)N1CCC(n2c(=O)[nH]c3ccccc32)CC1 has an EC50 of 4080 ± 1040 nM (Short transient receptor potential channel 6 (TRPC6, Homo sapiens, UniProt Q9Y210, K676R); channel activation, agonist, whole-cell patch clamp).
With Clc1ccc2ccc3[n+](c2c1)[Ir-3]12([c]4ccccc4-3)([c]3ccccc3-c3ccc4ccc(Cl)cc4[n+]31)[n+]1ccc(Br)cc1-c1cc(Br)cc[n+]12.F[P-](F)(F)(F)(F)F the EC50 was 63.1 nM (CDK9 with cyclin T1; enzyme activity, inhibitor).
With O=C(O)/C=C/c1cccc(NC(=O)c2cc(-c3cccc(F)c3)ccc2F)c1 the EC50 was greater than 10000 nM (Prostaglandin D2 receptor (PTGDR, Homo sapiens, UniProt Q13258); calcium signal, agonist, fluorescence).
C[C@@H]1NC(=O)[C@H](CC(N)=O)NC(=O)[C@H](Cc2c[nH]c3ccccc23)NC(=O)[C@H](CCCNC(=N)N)NC(=O)[C@@H](Cc2ccccc2)NC(=O)[C@H](Cc2c[nH]cn2)NC(=O)[C@@H](NC(=O)[C@@H](N)Cc2ccc(O)cc2)Cn2cc(nn2)C[C@@H](C(=O)N[C@@H](Cc2ccc(O)cc2)C(N)=O)NC(=O)[C@H](Cc2ccccc2)NC1=O gave an EC50 of 28 ± 5.4 nM (Melanocortin receptor 3 (Mus musculus, UniProt P33033); agonist).
For O=C(O)/C=C/c1cccc(NC(=O)c2cc(-c3ccc(F)cc3)ccc2F)c1, the EC50 was greater than 10000 nM (Prostaglandin E2 receptor EP1 subtype (PTGER1, Homo sapiens, UniProt P34995); calcium signal, agonist, fluorescence).
The EC50 of COC(=O)[C@]1(C)C=C(C(=O)Nc2cccc(C(=O)Nc3ccc(Nc4nccc(-c5cccnc5)n4)c(C)c3)c2)C(=O)CC1 is reported as 3.3 ± 1.7 nM (Mitogen-activated protein kinase 8 (MAPK8, Homo sapiens, UniProt P45983); target engagement, NanoBRET; HEK293; 2 h, together with: tracer K-5).
CC(C)c1cc2c(cc1O)[C@@]1(C(=O)O)CCCC(C)(C)[C@@H]1CC2 has an EC50 of 13000 nM (Potassium voltage-gated channel subfamily A member 2 (KCNA2, Homo sapiens, UniProt P16389); human cells).
CCC(=O)N(C)c1ccc(Cl)c(Cl)c1 gave an EC50 of 38000 nM and 38100 nM (NR1I2; reporter gene, agonist, luciferase).
For Nc1nc2c(cc(F)c3ncccc32)s1, the EC50 was greater than 30000 nM (KCNN4/CALM1 (Homo sapiens, UniProt O15554+P0DP23); ion current, activator, patch clamp).
CC1(CO)CCCC2(C)C1CCC1(C)c3cocc3CCC12 (stereo not shown) gave an EC50 of 1600 nM (Androgen receptor (Ar, Rattus norvegicus, UniProt P15207)).
Nc1ncnc2c1ncn2C1OC(COP(=O)(O)OP(=O)(O)OCC2OC(O)C(O)C2O)C(O)C1O (stereo not shown) has an EC50 of 7400 ± 700 nM (TRPM2, truncated at residue 1242 (Nematostella vectensis, UniProt A7T1N0); channel activation, activator, inside-out patch clamp; together with: 125 µM Ca2+).
For Clc1ccc2ccc3[n+](c2c1)[Ir-3]12([c]4ccccc4-3)([c]3ccccc3-c3ccc4ccc(Cl)cc4[n+]31)[n+]1ccccc1-c1cccc[n+]12.F[P-](F)(F)(F)(F)F, the EC50 was 3.3 ± 1.2 nM (CDK9 with cyclin T1; enzyme activity, inhibitor).
CCc1nc(-c2ccc(-c3ccc(CCC(N)(CO)CO)cc3)cc2)co1 gave an EC50 of 367 nM (Sphingosine 1-phosphate receptor 4 (S1PR4, Homo sapiens, UniProt O95977); β-arrestin recruitment, agonist).

Excerpt of the above:
CC1(CO)CCCC2(C)C1CCC1(C)c3cocc3CCC12 (stereo not shown) gave an EC50 of 1600 nM (Androgen receptor (Ar, Rattus norvegicus, UniProt P15207)).
C[C@@H]1NC(=O)[C@H](CC(N)=O)NC(=O)[C@H](Cc2c[nH]c3ccccc23)NC(=O)[C@H](CCCNC(=N)N)NC(=O)[C@@H](Cc2ccccc2)NC(=O)[C@H](Cc2c[nH]cn2)NC(=O)[C@@H](NC(=O)[C@@H](N)Cc2ccc(O)cc2)Cn2cc(nn2)C[C@@H](C(=O)N[C@@H](Cc2ccc(O)cc2)C(N)=O)NC(=O)[C@H](Cc2ccccc2)NC1=O gave an EC50 of 28 ± 5.4 nM (Melanocortin receptor 3 (Mus musculus, UniProt P33033); agonist).
